Results of several laboratories.

NC(=O)C(c1ccccc1)(c1ccc(F)cc1)c1ccc(OCC[18F])cc1 (stereo not shown) — stability (mouse serum; concentration not given, 120 min, 37 °C): stable
CN1C(=O)CC[C@H]1c1ccc[n+]([O-])c1 — stability (human liver microsome extract; 24 h, 8 °C): ≤ 10 % variation
CC(C)Cc1ccc(C(C)C(=O)[O][Pt]([NH2])([NH2])([Cl])([Cl])[O]C(=O)C(Cl)Cl)cc1 (stereo not shown) — stability (HPLC; phosphate buffer; days, pH 7, 37 °C): stable
CCCCCC(=O)Cc1c[nH]c2nc3c(ncn3C3CC(O)C(CO)O3)c(=O)n12 (stereo not shown) — stability (rat liver cytosol): stable
CCCC(CCC)C(=O)[O][Pt]([NH2])([NH2])([Cl])([Cl])[O]C(=O)C(Cl)Cl — stability (HPLC; phosphate buffer; days, pH 7, 37 °C): stable
CC(=O)/C(C#N)=C/c1cccc(C(N)=O)c1 — stability (buffer with DTT): stable
CSCOC1C(=O)C2(C)C(OCSC)CC3OCC3(OC(C)=O)C2C(OC(=O)c2ccccc2)C2(O)CC(OC(=O)C(O)C(C=C(C)C)NC(=O)OC(C)(C)C)C(C)=C1C2(C)C (stereo not shown) — stability (HPLC-MS/MS; rat liver homogenate; storage and freeze-thaw): stable
COC(=O)/C=C/C(=O)c1ccc(OC)cc1 — stability (rat plasma; 12 h, room temperature): stable
O=C(NC1CCCCC1)C(c1ccccn1)N(C(=O)CCl)c1cccc(F)c1 (racemic) — stability (HPLC-MS; DPBS; 24 h, 37 °C): unstable
[2H]C([2H])([2H])NC(=O)c1ccc(N2C(=S)N(c3ccc(C#N)c(C(F)(F)F)c3)C(=O)C2(C)C)cc1F — stability (human plasma; 5352 h, -80 °C, storage -60 to -90 °C, 223 days): stable
N[C@@H]1CCCC[C@H]1N.O=C1[O][Pt]2([O]C1=O)[O]C(=O)C(=O)[O]2 — stability (50 mM HCl; 24 h, 37 °C): stable
C[C@H]1C[C@@H](Oc2cccc(F)n2)CCN1Cc1cnc(N[11C](C)=O)s1 — stability (human plasma; 0.5 h, room temperature): 100%
Cc1ccc(S(=O)(=O)Oc2ccc(C(C(N)=O)(c3ccccc3)c3ccc(F)cc3)cc2)cc1 (stereo not shown) — stability (DMF; concentration not given, 10 min, 130 °C, no base): stable

For quick reference, copied from above:
COC(=O)/C=C/C(=O)c1ccc(OC)cc1 — stability (rat plasma; 12 h, room temperature): stable
O=C(NC1CCCCC1)C(c1ccccn1)N(C(=O)CCl)c1cccc(F)c1 (racemic) — stability (HPLC-MS; DPBS; 24 h, 37 °C): unstable
